{"data": "Assay results of several laboratories", "note": "A part holds a random share of what one study measured. Positions count from the first letter of the parent shown.", "UniProt Q13464, sequence (whole entry, looked up)": "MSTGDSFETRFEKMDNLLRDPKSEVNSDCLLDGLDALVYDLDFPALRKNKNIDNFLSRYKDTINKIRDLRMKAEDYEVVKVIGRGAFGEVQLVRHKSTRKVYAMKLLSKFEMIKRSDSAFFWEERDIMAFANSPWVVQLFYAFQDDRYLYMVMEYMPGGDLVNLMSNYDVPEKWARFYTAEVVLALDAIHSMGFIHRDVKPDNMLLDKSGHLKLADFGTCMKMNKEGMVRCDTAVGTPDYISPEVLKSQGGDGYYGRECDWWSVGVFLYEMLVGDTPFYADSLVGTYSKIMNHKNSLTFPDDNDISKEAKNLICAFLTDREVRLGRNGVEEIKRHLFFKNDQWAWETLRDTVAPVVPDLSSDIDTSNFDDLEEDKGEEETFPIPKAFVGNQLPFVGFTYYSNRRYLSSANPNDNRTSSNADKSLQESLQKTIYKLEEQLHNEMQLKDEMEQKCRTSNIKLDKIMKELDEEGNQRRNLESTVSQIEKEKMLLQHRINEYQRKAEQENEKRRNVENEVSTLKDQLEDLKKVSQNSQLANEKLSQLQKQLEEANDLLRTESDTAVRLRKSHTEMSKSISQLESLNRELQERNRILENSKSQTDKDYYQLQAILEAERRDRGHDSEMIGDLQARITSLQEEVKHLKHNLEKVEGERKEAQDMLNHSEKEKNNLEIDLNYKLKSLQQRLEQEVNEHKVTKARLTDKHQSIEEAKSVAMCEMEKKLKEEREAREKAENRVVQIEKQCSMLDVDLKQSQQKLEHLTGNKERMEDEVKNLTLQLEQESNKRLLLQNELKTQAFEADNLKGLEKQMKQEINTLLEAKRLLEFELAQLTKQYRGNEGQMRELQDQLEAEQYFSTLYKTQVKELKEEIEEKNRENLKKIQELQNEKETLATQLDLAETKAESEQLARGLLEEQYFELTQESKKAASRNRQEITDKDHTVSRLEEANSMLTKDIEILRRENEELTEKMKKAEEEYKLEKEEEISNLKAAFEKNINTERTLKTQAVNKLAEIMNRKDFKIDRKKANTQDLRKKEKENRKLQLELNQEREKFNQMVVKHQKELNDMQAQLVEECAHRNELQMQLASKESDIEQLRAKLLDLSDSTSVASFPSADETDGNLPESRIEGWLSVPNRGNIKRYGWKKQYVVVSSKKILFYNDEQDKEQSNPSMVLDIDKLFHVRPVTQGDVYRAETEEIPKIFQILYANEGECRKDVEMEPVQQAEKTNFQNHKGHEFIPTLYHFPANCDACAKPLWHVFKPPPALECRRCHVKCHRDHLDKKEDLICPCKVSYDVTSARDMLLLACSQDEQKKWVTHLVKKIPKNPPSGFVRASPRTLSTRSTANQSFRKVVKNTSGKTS", "UniProt P50750, sequence (whole entry, looked up)": "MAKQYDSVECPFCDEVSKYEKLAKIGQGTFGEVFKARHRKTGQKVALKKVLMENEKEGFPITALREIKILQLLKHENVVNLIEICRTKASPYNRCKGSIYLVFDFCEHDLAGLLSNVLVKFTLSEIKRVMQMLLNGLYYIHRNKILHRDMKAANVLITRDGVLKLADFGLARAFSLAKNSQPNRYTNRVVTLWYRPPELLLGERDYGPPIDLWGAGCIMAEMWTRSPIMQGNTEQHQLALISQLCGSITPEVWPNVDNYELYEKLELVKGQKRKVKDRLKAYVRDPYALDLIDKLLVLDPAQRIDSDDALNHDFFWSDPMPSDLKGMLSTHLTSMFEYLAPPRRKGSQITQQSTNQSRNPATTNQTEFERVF", "UniProt Q6P2M8, sequence (whole entry, looked up)": "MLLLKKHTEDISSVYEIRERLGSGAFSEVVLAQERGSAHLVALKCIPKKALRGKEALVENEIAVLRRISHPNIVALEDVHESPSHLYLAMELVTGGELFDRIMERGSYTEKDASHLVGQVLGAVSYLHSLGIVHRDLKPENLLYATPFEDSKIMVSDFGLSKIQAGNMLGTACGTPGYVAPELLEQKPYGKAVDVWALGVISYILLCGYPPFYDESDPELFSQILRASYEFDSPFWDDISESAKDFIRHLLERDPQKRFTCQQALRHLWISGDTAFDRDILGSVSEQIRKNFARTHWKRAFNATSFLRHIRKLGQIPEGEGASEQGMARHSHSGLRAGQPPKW", "UniProt P35968, sequence (whole entry, looked up)": "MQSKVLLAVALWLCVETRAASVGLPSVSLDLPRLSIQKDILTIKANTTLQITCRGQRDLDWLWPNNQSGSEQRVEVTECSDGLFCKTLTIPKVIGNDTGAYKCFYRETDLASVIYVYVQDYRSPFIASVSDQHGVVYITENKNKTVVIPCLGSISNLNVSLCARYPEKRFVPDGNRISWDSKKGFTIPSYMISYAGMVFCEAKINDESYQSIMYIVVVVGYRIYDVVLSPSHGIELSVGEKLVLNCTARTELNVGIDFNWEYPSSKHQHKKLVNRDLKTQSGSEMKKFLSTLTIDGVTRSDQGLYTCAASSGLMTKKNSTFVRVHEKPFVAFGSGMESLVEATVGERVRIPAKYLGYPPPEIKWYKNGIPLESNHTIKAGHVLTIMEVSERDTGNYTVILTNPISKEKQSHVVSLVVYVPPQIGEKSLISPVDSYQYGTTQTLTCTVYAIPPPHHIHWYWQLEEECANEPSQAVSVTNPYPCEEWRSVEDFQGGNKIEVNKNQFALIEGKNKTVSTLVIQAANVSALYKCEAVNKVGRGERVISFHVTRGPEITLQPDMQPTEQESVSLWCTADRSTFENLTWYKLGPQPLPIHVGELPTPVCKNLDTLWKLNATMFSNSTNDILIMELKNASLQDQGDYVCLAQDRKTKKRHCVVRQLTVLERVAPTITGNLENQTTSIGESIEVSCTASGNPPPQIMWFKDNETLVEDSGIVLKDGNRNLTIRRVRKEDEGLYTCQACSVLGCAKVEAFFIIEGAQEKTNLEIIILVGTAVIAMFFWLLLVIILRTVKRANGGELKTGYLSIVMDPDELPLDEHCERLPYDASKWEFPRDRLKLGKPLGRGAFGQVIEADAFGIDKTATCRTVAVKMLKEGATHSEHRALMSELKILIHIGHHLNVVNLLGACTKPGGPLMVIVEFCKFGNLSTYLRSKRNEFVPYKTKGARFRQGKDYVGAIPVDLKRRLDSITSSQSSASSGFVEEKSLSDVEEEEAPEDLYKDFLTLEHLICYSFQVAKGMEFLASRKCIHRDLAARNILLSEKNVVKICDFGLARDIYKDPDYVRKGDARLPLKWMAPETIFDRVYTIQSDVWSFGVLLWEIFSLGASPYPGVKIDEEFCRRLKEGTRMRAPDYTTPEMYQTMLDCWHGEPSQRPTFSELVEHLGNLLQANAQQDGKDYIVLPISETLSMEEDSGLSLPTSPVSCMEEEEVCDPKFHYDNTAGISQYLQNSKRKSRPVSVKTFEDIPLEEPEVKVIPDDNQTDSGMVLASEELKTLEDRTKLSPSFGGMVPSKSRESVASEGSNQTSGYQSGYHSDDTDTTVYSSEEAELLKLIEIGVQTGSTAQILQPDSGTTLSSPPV"}
{"data": "Series 1", "target": "Centromere-binding protein 1, full length, N-terminal tag (CBF1, Saccharomyces cerevisiae, UniProt P17106, residues 1-351)", "method": "protein-binding microarray", "molecule type": "double-stranded DNA, one strand shown", "matrix": "in vitro", "concentration": "0.8 µM", "notes": "whole 60-bp probe, no competitor", "direction": "higher = stronger binding", "UniProt P17106, sequence (whole entry, looked up)": "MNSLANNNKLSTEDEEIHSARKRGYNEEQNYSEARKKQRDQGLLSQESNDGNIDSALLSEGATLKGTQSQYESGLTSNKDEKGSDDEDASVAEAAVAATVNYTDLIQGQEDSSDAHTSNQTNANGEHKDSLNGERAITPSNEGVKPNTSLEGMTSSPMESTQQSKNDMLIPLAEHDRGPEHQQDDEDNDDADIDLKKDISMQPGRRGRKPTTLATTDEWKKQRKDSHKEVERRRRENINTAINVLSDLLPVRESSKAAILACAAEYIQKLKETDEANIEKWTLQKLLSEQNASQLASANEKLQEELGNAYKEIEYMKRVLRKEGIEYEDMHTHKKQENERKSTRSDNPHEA"}
{"Sequence": "GAATCCAGATCTTTCTGCCTGATGAAAGAAAATTAGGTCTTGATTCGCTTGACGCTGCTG", "fluorescence intensity [a.u.]": 523}
{"Sequence": "CTAATTCGCTTCTGTACATCAGCCGGTATTCGCTTCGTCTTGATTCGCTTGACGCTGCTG", "fluorescence intensity [a.u.]": 489}
{"Sequence": "CTAGCGTTATGCTTCCATGTGACCCAACATCTATTCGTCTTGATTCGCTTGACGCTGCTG", "fluorescence intensity [a.u.]": 2780}
{"Sequence": "GAACAGGGAGTTTATCATCAGAATGATTAGTGTTAGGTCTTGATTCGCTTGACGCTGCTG", "fluorescence intensity [a.u.]": 523}
{"Sequence": "CCTAACTACTATACACGTGCAAAATAGCTTCGTACAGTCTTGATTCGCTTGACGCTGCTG", "fluorescence intensity [a.u.]": 6300}
{"Sequence": "GAATGTTGTCACCTCCAGGTGATTTGCTGTCTTTAGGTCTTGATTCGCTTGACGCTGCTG", "fluorescence intensity [a.u.]": 550}
{"Sequence": "GAACATTTCTAGGGTAACATCAGAATGCCCTTGTAGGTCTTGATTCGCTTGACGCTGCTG", "fluorescence intensity [a.u.]": 542}
{"Sequence": "GAAATTTTATTAAGACACGTTTATCAATTGCCGTAGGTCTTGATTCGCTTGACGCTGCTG", "fluorescence intensity [a.u.]": 619}
{"data": "Series 2", "target": "CCNA2, cyclin fold, Cln2 fusion (human)", "method": "yeast growth competition, sequencing", "matrix": "yeast", "notes": "strong parent motif", "baseline": "not given", "direction": "higher = stronger binding", "starting sequence": "viral docking peptide; PTARRRLLHDLDT; partner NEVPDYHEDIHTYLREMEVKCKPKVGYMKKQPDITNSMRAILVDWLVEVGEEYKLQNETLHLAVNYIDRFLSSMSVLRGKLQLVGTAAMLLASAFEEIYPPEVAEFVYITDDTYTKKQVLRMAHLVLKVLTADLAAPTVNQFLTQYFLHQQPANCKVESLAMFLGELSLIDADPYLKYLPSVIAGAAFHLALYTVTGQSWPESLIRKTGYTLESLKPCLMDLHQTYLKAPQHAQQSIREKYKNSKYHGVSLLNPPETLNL"}
{"Change": "L7A", "normalised enrichment score": -0.192}
{"Change": "H9F", "normalised enrichment score": 6.8}
{"Change": "R5A", "normalised enrichment score": 0.488}
{"Change": "L11A", "normalised enrichment score": 2.26}
{"Change": "D12A", "normalised enrichment score": 1.51}
{"Change": "R4A", "normalised enrichment score": -0.1}
{"Change": "P1A", "normalised enrichment score": 2.29}
{"Change": "L8F", "normalised enrichment score": 6.8}
{"Change": "R5K", "normalised enrichment score": 1.77}
{"Change": "R5A R6A L7A L8A", "normalised enrichment score": -0.111}
{"data": "Series 3", "SMILES": "O=C1NC(=O)c2c1c1c3ccccc3n3c1c1c2c2ccccc2n1[C@H]1CC[C@@H]3O1", "read-out": "enzyme activity", "action": "inhibitor", "concentration": "0.5 µM", "baseline": "control"}
{"target": "Calcium/calmodulin-dependent protein kinase type 1B (PNCK, Homo sapiens, UniProt Q6P2M8)", "remaining activity [%]": 50.5}
{"target": "Rho-associated protein kinase 1 (ROCK1, Homo sapiens, UniProt Q13464)", "remaining activity [%]": 88.7}
{"target": "Hepatocyte growth factor receptor (MET, Homo sapiens, UniProt P08581)", "remaining activity [%]": 76.9}
{"target": "Vascular endothelial growth factor receptor 2 (KDR, Homo sapiens, UniProt P35968)", "remaining activity [%]": 4.55}
{"target": "Cyclin-dependent kinase 9, with cyclin K (CDK9, Homo sapiens, UniProt P50750)", "remaining activity [%]": 15.8}
{"data": "Series 4", "target": "inorganic phosphate, free oxyanion", "method": "microfluidic competitive inhibition", "matrix": "in vitro, cell-free expressed", "concentration": "not given", "notes": "derived from inhibition constants, unchanged parent 615000 nM", "direction": "lower = stronger binding", "starting sequence": "PafA, mature enzyme, eGFP fusion (Elizabethkingia meningoseptica, UniProt Q9KJX5); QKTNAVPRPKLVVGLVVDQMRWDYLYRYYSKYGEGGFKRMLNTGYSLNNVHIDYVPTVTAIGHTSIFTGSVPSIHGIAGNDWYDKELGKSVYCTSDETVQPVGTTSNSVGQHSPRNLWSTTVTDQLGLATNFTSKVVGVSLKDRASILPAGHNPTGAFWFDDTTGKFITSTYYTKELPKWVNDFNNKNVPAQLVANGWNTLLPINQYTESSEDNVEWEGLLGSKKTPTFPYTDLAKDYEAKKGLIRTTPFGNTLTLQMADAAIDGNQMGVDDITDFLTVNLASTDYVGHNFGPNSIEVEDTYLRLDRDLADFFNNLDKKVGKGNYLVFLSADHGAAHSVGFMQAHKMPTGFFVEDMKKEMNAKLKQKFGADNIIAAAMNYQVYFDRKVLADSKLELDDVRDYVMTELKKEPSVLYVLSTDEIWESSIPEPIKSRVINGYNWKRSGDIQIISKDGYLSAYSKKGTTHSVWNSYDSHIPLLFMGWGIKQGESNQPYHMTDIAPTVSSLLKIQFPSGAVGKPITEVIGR"}
{"Change": "S70G", "phosphate dissociation constant [µM]": 389}
{"Change": "G35V", "phosphate dissociation constant [µM]": 661}
{"Change": "L414V", "phosphate dissociation constant [µM]": 595}
{"Change": "I374V", "phosphate dissociation constant [µM]": 672}
{"Change": "D183G", "phosphate dissociation constant [µM]": 686}
{"Change": "V279G", "phosphate dissociation constant [µM]": 387}
{"Change": "S418G", "phosphate dissociation constant [µM]": 644}
{"Change": "K387G", "phosphate dissociation constant [µM]": 578}
{"Change": "A157V", "phosphate dissociation constant [µM]": 645}
{"Change": "A262V", "phosphate dissociation constant [µM]": 533}
{"Change": "L305V", "phosphate dissociation constant [µM]": 852}
{"Change": "S392V", "phosphate dissociation constant [µM]": 683}
{"Change": "V58A", "phosphate dissociation constant [µM]": 614}
{"Change": "N205V", "phosphate dissociation constant [µM]": 691}
{"Change": "M356V", "phosphate dissociation constant [µM]": 623}
{"Change": "I263V", "phosphate dissociation constant [µM]": 585}
{"Change": "F480V", "phosphate dissociation constant [µM]": 415}
{"Change": "H345V", "phosphate dissociation constant [µM]": 645}
{"Change": "T301V", "phosphate dissociation constant [µM]": 665}
{"Change": "F67V", "phosphate dissociation constant [µM]": 289}
{"Change": "F160V", "phosphate dissociation constant [µM]": 415}
{"Change": "D398V", "phosphate dissociation constant [µM]": 672}
{"Change": "F291V", "phosphate dissociation constant [µM]": 594}
{"Change": "D473V", "phosphate dissociation constant [µM]": 215}
{"Change": "V181A", "phosphate dissociation constant [µM]": 671}
{"data": "Series 5", "target": "ATF1, bZIP domain (human)", "method": "DHFR protein complementation", "matrix": "yeast", "notes": "single substitutions, most at no-binding floor", "baseline": "wild-type JUN-FOS pair", "direction": "higher = stronger binding", "starting sequence": "JUN, bZIP domain (human); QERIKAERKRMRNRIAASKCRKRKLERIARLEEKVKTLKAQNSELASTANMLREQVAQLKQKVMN; partner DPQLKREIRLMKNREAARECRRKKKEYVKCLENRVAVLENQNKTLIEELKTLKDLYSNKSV"}
{"Change": "L31M", "binding fitness [natural log]": -1.51}
{"Change": "R30W", "binding fitness [natural log]": -1.46}
{"Change": "Q55I", "binding fitness [natural log]": -1.5}
{"Change": "E33H", "binding fitness [natural log]": -1.56}
{"Change": "N42F", "binding fitness [natural log]": -1.44}
{"Change": "R53N", "binding fitness [natural log]": -1.48}
{"Change": "N42H", "binding fitness [natural log]": -1.5}
{"Change": "E54R", "binding fitness [natural log]": -1.47}
